Measurements of several laboratories.
Compare with care: the assays were run in different laboratories. ± marks the error that the study gave.
MINK1: Misshapen-like kinase 1 (MINK1, Homo sapiens, UniProt Q8N4C8)
Sequence of UniProt Q8N4C8 (whole entry, looked up): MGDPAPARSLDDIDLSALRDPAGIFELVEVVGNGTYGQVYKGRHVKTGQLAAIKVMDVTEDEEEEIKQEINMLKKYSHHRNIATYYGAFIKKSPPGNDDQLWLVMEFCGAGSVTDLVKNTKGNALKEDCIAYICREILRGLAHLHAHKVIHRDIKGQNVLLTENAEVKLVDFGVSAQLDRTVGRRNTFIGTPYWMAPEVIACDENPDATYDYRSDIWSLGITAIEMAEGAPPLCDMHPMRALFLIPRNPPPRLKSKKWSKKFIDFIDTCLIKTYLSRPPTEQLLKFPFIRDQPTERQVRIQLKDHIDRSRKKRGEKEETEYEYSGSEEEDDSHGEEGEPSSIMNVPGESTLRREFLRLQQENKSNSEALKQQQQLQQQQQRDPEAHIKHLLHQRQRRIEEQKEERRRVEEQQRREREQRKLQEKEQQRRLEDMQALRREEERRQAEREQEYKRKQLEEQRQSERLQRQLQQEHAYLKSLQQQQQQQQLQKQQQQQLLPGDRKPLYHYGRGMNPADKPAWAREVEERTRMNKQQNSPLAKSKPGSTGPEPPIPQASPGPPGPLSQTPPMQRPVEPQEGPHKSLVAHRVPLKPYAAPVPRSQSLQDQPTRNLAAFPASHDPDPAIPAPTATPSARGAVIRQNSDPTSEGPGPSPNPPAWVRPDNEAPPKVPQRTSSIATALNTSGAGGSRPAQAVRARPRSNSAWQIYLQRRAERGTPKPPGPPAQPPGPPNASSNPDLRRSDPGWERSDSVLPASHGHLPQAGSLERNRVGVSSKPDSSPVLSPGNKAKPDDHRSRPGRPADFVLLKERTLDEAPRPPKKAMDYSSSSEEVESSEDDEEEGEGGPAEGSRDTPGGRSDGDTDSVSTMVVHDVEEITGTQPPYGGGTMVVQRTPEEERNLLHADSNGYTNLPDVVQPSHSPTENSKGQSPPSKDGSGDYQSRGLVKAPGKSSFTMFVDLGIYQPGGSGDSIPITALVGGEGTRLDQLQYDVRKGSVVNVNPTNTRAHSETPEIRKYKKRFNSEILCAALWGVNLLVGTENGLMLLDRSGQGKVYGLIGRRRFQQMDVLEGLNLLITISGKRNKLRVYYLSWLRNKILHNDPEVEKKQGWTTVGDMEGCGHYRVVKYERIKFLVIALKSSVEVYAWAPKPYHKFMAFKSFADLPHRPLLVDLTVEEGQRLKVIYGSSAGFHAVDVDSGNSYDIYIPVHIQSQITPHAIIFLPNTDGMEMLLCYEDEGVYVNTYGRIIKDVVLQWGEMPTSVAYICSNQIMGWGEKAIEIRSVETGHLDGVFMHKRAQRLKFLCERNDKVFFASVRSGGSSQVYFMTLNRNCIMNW
MAP3K20: Mitogen-activated protein kinase kinase kinase 20 (MAP3K20, Homo sapiens, UniProt Q9NYL2)
Sequence of UniProt Q05513 (whole entry, looked up): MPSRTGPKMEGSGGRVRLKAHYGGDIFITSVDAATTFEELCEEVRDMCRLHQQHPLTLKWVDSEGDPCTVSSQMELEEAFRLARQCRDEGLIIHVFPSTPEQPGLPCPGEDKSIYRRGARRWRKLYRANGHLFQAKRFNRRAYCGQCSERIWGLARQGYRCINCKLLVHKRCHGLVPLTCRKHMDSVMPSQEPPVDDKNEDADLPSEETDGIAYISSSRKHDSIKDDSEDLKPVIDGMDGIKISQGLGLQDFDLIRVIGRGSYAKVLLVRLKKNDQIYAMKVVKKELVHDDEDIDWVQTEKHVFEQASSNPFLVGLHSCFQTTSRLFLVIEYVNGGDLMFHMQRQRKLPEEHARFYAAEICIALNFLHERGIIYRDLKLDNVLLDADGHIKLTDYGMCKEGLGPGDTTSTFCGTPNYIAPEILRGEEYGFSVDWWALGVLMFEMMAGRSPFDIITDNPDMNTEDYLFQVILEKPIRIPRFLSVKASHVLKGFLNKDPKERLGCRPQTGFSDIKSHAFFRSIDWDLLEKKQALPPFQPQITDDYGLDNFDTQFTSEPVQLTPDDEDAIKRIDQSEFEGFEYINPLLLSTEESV
Sequence of UniProt Q9NYL2 (whole entry, looked up): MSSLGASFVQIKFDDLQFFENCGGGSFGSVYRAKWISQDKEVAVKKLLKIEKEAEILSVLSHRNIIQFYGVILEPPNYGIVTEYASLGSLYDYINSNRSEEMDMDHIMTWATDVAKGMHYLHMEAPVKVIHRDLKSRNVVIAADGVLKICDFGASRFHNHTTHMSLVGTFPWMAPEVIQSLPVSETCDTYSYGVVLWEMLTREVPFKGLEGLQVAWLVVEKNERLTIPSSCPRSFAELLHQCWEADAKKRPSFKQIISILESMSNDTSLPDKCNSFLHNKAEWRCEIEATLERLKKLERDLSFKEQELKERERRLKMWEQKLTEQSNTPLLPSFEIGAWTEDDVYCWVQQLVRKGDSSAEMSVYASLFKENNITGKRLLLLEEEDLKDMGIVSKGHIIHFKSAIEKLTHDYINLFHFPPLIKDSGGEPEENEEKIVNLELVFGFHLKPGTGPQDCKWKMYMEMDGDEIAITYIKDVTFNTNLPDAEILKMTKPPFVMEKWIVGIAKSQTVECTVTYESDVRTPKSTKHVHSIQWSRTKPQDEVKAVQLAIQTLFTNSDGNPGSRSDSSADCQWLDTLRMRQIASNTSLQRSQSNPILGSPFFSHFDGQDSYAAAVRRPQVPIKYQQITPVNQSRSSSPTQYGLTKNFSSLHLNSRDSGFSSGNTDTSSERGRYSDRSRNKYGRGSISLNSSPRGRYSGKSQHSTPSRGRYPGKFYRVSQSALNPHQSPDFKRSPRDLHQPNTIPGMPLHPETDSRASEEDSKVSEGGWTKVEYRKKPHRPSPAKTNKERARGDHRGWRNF
Sequence of UniProt P49935 (whole entry, looked up): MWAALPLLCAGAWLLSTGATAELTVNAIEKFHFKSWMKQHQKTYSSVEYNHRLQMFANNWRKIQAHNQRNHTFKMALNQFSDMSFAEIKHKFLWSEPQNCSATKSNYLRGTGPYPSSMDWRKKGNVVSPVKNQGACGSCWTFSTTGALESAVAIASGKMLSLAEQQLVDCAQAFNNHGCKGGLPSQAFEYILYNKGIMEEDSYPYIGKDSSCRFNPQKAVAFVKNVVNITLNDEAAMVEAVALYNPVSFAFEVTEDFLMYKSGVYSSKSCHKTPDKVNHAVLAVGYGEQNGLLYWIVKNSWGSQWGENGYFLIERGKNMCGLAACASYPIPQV
Sequence of UniProt Q8IW41 (whole entry, looked up): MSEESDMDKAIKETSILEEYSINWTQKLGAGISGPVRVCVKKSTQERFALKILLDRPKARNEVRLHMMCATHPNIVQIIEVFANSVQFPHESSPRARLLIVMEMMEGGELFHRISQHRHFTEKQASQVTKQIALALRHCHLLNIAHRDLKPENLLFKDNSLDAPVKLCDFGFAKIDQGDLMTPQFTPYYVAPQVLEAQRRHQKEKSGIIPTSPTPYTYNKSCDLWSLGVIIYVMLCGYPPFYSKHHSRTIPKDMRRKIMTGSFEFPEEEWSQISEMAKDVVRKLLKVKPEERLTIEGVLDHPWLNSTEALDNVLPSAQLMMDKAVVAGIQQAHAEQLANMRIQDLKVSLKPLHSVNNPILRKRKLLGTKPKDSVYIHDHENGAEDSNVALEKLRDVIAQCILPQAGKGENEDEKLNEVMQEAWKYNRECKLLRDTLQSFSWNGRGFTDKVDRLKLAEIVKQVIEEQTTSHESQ
Sequence of UniProt P00690 (whole entry, looked up): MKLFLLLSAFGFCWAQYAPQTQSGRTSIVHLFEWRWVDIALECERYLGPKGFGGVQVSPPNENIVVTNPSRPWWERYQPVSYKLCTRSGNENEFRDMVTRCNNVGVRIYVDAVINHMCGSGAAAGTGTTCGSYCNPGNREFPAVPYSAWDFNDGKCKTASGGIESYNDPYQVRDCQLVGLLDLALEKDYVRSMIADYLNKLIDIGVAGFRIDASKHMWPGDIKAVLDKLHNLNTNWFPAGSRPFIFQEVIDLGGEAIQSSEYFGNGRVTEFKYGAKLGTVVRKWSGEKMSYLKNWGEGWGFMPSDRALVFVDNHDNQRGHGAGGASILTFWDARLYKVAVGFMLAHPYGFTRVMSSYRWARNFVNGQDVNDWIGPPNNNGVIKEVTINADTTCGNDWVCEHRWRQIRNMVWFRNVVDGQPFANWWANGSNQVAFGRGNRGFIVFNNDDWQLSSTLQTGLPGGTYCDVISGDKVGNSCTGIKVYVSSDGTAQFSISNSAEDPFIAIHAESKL
Sequence of UniProt O60331 (whole entry, looked up): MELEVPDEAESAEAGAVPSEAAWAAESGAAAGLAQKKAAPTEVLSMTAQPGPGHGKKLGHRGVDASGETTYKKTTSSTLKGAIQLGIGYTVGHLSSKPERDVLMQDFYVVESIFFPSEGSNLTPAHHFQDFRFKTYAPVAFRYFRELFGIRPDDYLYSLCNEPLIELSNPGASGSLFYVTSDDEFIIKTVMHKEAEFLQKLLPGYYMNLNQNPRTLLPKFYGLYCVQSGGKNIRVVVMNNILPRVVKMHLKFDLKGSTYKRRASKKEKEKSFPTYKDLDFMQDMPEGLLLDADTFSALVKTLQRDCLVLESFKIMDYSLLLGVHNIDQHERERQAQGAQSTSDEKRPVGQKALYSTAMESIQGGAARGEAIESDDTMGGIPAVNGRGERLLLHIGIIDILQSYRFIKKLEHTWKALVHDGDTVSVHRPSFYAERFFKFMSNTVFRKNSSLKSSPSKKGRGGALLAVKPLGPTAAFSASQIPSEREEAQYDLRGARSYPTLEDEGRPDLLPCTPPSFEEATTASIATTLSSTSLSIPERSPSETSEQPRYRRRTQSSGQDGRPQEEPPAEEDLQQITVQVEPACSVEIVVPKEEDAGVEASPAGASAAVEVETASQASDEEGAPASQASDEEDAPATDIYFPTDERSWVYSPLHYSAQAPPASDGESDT
Sequence of UniProt Q92519 (whole entry, looked up): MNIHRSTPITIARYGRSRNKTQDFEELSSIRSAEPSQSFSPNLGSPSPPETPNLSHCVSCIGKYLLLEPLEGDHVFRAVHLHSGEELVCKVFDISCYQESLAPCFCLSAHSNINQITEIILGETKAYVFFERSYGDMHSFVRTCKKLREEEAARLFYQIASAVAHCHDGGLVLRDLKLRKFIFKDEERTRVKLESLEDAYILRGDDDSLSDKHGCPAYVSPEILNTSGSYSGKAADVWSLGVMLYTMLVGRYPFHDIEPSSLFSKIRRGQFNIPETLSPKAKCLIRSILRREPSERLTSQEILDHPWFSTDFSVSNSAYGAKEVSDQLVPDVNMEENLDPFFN

SMILES | target | test | conditions | how to read | remaining activity [%]
COc1cc(F)ccc1-c1ncnc(Nc2cccc(C[S@](C)(=N)=O)c2)n1 | MAP kinase-activated protein kinase 5 (MAPKAPK5, Homo sapiens, UniProt Q8IW41) | kinase activity | 10 µM, added: 10 µM ATP | – | 93
C[C@@H](Oc1ccc(S(C)(=O)=O)cc1C(=O)N1C[C@@H]2C[C@]2(c2cc(C(F)(F)F)on2)C1)C(F)(F)F | Sodium- and chloride-dependent glycine transporter 1 (SLC6A9, Homo sapiens, UniProt P48067, L476T) | glycine uptake, inhibitor, [3H]glycine uptake | 0.002 µM, L422T mutant, log concentration 2, added: [3H]glycine | relative to: no inhibitor | 95.7
C/C(=N/Nc1ccc([N+](=O)[O-])cc1[N+](=O)[O-])c1ccccc1 | fdhA (Pseudomonas putida, UniProt P46154) | – | concentration not given, without demethylase | – | > 80
Cc1cc(Nc2cc(N3CCN(C)CC3)nc(Sc3ccc(NC(=O)C4CC4)cc3)n2)[nH]n1 | Protein kinase C zeta type (PRKCZ, Homo sapiens, UniProt Q05513) | kinase activity, KinaseProfiler | 0.03 µM, species human | relative to: control | 93
COc1cc(Nc2ncc3c(n2)-c2ccc(Cl)cc2C(c2c(F)cccc2OC)=NC3)ccc1C(=O)O | PKC beta I | inhibitor, biochemical kinase | 1 µM | – | 105
C=CC(=O)N1CCC[C@@H](n2nc(-c3ccc(Oc4ccccc4)cc3)c3c(N)ncnc32)C1 | Dual specificity testis-specific protein kinase 2 (TESK2, Homo sapiens, UniProt Q96S53) | – | 0.1 µM | – | 85.8
CC(C)C(=O)Nc1n[nH]c2cc(-c3cccc(NS(=O)(=O)C4CC4)c3)ccc12 | Phosphatidylinositol 4-phosphate 5-kinase type-1 gamma (PIP5K1C, Homo sapiens, UniProt O60331) | ADP-Glo | 4.57 nM | relative to: DMSO | 102
O=C(NC1CCC1)c1ccc2nc(-c3cccc(NS(=O)(=O)NCCN4CCCCC4)c3)cn2c1 | Vascular endothelial growth factor receptor 3 (FLT4, Homo sapiens, UniProt P35916) | enzyme activity | 10 µM | – | 100
CNc1ncc2c(/C=C/C(=O)N3CCC(OC)CC3)nn(Cc3cccc(C(F)(F)F)c3)c2n1 | Protein kinase C zeta type, PKMzeta isoform (PRKCZ, Homo sapiens, UniProt Q05513) | kinase activity, inhibitor | 1 µM | relative to: untreated control | 96
CCCCCCCCCCCCCCNC(=O)/C=C/c1ccc(O)c(O)c1 | Pancreatic alpha-amylase (AMY2, Sus scrofa, UniProt P00690) | enzyme activity | 10 µM, added: α-glucosidase present | – | 79.2 ± 1.42
COc1cc(N2CCN(C)CC2)ccc1Nc1nc(N)n(C(=S)NCc2c(Cl)cccc2Cl)n1 | Serine/threonine-protein kinase PRP4 homolog (PRPF4B, Homo sapiens, UniProt Q13523) | enzyme activity | 10 µM | relative to: control | 0
NC(=O)c1ncn([C@@H]2O[C@H](CO[P@@](=O)(O)O[P@](=O)(O)OP(=O)(O)O)[C@@H](O)[C@H]2O)n1 | Non-structural polyprotein pORF1, RNA-dependent RNA polymerase (Hepatitis E virus genotype 1, UniProt P33424) | polymerase activity, inhibitor, colorimetric | 14 µM | relative to: untreated | 84.2
O=C1NC(=O)/C(=C/c2ccc(-c3ccc(F)cc3O)o2)S1 | MINK1 | enzyme activity | 10 µM | – | 24
COc1cc(-c2cncc3c2CN(C)Cc2cc(N4CCNCC4)ccc2-3)cc(OC)c1OC | Tribbles homolog 2 (TRIB2, Homo sapiens, UniProt Q92519) | kinase activity | 1 µM, human enzyme, added: ATP 10 µM | relative to: DMSO control | 108
O=C(O)c1ccc(Nc2ncc3c(n2)-c2ccc(Cl)cc2C(c2c(F)cccc2F)=NC3)cc1 | bovine PKA | inhibitor, biochemical kinase | 1 µM | – | 86
c1cnc2ccc(Nc3nc(NC4CC4)c4nc[nH]c4n3)cc2c1 | Macrophage-stimulating protein receptor (MST1R, Homo sapiens, UniProt Q04912) | kinase activity, inhibitor, SelectScreen kinase profiling | 1 µM | relative to: control | 91
CC#CC(=O)N1CCC[C@H]1c1nc(-c2ccc(C(=O)Nc3ccccn3)cc2)c2c(N)nccn12 | MAP3K20 | kinase activity, inhibitor, HotSpot radiometric | 100 nM, added: ATP 10 µM | – | 105 ± 3.5
NC/C(=C\F)COc1cccc(Cn2c(=S)[nH]c(=O)c3[nH]cnc32)c1 | Peroxidasin homolog (PXDN, Homo sapiens, UniProt Q92626) | Amplex UltraRed | 1.25 µM | relative to: control | 95.8
Cc1cccc(C)c1C(=O)OCC(=O)[C@H](CCCCN)NC(=O)[C@H](CCCNC(=N)N)NC(=O)OCc1ccccc1 | Pro-cathepsin H (Ctsh, Mus musculus, UniProt P49935) | inhibitor | 0.1 µM, room temperature, added: AMC substrate | – | 92
OC[C@H]1O[C@@H](O[C@H]2[C@H](O)[C@@H](O)C(O)O[C@@H]2CO)[C@H](O)[C@@H](O)[C@@H]1O (some centres unmarked) | uncharacterized protein (Paenibacillus xylanivorans, UniProt A0A0N0C5Q2) | enzyme activity, product inhibitor | 250000 µM, pH 4.5, 40 °C | – | ~50
CC(C)OCCn1c(=S)[nH]c(=O)c2[nH]ccc21 | Myeloperoxidase (MPO, Homo sapiens, UniProt P05164) | LDL lipid peroxidation, inhibitor, cholesteryl ester hydroperoxide | 0.3704 µM | – | 57.4
COc1ccc(F)cc1C(=O)NCc1ccc(-c2nn([C@@H](C)C(F)(F)F)c(N)c2C(N)=O)cc1 | MAP3K20 | kinase activity, inhibitor, HotSpot radiometric | 100 nM, added: ATP 10 µM | – | 93.3 ± 0.5
COc1cc(N2CCN(C)CC2)ccc1Nc1nc(N)n(C(=O)NCc2c(Cl)cccc2Cl)n1 | MINK1 | enzyme activity | 10 µM | relative to: control | 22

Repeated from above:
SMILES | target | test | conditions | how to read | remaining activity [%]
CC#CC(=O)N1CCC[C@H]1c1nc(-c2ccc(C(=O)Nc3ccccn3)cc2)c2c(N)nccn12 | MAP3K20 | kinase activity, inhibitor, HotSpot radiometric | 100 nM, added: ATP 10 µM | – | 105 ± 3.5
NC/C(=C\F)COc1cccc(Cn2c(=S)[nH]c(=O)c3[nH]cnc32)c1 | Peroxidasin homolog (PXDN, Homo sapiens, UniProt Q92626) | Amplex UltraRed | 1.25 µM | relative to: control | 95.8
